Results from different studies.
Lines come from different studies, so protocols differ. ± marks the error that the study gave.
HTR1E: 5-hydroxytryptamine receptor 1E (HTR1E, Homo sapiens, UniProt P28566)
UniProt P28566, sequence (whole entry, looked up): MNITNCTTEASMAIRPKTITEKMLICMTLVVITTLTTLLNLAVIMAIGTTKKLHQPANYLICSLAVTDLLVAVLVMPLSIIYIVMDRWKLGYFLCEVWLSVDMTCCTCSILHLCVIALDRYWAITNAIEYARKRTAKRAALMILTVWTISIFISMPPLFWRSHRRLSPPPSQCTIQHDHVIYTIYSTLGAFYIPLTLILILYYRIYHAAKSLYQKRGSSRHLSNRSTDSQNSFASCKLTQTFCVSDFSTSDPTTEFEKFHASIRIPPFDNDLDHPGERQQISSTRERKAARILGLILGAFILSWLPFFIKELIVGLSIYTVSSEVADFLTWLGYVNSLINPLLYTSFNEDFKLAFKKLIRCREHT
Luciferin 4-monooxygenase: Luciferin 4-monooxygenase (Photinus pyralis, UniProt P08659)
UniProt P08659, sequence (whole entry, looked up): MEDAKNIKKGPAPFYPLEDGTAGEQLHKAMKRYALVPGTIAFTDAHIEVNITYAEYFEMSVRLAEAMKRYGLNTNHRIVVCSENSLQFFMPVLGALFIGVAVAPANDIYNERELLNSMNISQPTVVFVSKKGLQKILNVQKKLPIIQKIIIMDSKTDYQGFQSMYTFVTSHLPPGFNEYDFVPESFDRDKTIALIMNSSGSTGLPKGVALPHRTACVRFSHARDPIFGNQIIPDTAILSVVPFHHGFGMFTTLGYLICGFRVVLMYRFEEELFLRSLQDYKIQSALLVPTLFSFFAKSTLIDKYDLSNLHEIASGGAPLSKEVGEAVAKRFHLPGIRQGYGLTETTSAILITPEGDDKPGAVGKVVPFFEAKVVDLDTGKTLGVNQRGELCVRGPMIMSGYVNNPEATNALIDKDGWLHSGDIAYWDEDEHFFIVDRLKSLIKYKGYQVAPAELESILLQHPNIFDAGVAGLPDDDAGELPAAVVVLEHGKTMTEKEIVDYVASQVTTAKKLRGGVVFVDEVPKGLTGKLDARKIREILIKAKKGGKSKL
Palmitoyl-protein thioesterase 1: Palmitoyl-protein thioesterase 1 (Homo sapiens, UniProt P50897)
UniProt P50897, sequence (whole entry, looked up): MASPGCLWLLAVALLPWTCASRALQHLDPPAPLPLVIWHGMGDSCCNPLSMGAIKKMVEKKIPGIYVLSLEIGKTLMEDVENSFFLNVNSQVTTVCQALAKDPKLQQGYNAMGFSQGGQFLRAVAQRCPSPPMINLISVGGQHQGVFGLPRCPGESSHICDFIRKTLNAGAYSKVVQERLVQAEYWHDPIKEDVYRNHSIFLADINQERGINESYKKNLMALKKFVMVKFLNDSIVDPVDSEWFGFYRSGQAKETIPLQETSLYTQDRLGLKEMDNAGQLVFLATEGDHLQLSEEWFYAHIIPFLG
UniProt Q16581, sequence (whole entry, looked up): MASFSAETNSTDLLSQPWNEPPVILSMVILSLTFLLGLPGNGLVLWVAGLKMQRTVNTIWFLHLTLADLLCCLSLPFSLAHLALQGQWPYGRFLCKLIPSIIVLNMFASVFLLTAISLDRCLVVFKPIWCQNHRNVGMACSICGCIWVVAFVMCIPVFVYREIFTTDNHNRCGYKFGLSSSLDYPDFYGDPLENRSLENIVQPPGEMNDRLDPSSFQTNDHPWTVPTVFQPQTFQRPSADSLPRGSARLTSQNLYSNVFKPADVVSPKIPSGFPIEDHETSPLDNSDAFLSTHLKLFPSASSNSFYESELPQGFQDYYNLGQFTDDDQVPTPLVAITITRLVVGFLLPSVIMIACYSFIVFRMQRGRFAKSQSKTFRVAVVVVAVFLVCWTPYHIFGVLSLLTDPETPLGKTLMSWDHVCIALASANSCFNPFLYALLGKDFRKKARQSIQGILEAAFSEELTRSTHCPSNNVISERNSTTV
UniProt P21728, sequence (whole entry, looked up): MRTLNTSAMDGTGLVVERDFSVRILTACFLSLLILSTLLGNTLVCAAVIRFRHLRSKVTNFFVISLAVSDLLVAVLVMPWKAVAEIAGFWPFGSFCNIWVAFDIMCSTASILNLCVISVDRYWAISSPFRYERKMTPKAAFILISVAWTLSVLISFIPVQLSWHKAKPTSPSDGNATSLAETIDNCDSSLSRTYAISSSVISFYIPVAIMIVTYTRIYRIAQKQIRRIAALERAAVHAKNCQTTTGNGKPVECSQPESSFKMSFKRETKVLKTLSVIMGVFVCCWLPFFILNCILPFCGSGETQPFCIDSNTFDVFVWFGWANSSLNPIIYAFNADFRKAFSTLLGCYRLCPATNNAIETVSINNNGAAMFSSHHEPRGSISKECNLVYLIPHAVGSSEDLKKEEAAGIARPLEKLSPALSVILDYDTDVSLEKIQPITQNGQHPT
UniProt P25105, sequence (whole entry, looked up): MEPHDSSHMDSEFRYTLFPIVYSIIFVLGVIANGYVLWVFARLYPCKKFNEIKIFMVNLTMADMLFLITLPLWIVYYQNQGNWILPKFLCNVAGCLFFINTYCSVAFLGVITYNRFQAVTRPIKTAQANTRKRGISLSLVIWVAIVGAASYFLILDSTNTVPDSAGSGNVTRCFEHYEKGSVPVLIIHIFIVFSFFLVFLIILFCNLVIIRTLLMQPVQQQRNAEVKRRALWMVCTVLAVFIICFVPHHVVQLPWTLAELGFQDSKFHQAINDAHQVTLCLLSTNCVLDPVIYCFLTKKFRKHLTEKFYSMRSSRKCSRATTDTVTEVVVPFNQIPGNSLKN
UniProt Q9C0K7, sequence (whole entry, looked up): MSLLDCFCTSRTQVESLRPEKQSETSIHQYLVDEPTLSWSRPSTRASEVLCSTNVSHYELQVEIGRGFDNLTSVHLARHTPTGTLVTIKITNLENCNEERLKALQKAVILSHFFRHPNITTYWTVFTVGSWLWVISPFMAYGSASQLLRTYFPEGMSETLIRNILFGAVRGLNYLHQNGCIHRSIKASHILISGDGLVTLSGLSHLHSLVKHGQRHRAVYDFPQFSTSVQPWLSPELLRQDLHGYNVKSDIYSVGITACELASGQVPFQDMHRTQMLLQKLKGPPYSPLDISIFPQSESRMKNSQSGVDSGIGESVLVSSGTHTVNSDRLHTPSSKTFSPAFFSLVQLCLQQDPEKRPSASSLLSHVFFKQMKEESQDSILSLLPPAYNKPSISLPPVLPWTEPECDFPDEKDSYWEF
UniProt P49760, sequence (whole entry, looked up): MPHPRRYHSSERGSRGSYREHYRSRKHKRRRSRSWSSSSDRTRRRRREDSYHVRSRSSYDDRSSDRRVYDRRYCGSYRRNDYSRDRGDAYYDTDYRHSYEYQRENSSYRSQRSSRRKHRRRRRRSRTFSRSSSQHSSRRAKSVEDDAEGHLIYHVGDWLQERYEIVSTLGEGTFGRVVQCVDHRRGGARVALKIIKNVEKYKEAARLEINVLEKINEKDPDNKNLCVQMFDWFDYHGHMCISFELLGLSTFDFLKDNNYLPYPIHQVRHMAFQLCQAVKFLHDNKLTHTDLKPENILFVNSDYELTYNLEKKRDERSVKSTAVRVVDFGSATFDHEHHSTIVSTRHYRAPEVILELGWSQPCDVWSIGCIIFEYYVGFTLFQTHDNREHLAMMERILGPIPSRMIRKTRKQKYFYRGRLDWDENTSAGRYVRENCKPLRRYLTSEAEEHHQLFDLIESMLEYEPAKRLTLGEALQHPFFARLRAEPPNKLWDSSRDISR
UniProt Q9Y2U5, sequence (whole entry, looked up): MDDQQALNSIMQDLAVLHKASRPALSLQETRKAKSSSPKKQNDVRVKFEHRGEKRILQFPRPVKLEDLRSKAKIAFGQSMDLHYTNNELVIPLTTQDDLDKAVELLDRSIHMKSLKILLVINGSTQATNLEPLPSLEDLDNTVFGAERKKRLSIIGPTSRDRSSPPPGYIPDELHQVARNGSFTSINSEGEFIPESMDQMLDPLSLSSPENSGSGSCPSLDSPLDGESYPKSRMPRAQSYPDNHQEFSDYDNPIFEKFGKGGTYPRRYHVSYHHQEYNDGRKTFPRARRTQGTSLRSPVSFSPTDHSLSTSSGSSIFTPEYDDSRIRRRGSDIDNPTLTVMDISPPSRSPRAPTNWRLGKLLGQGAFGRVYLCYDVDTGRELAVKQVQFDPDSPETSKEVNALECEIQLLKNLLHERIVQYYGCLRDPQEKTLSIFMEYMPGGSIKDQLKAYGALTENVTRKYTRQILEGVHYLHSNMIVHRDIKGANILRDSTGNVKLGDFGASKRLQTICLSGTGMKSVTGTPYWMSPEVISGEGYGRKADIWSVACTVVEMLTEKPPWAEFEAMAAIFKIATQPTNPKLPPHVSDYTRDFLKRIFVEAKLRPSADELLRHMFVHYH
UniProt P09242, sequence (whole entry, looked up): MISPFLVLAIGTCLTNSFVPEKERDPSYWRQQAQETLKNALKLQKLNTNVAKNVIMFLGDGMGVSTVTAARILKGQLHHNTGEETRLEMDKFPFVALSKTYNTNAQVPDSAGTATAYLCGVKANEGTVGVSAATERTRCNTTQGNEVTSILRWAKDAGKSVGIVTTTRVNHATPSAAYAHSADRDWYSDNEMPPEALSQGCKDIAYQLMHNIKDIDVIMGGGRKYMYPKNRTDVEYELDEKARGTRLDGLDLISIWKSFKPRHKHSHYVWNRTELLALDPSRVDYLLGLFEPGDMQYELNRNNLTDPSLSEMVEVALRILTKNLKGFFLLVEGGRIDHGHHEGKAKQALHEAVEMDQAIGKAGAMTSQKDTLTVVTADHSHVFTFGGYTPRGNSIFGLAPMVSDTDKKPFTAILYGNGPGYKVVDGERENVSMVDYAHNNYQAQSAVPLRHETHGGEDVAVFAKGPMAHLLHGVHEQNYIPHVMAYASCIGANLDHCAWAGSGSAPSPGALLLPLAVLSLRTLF

SMILES	target	assay	test system	setting	inhibition
COc1ccc2c(c1)C(=O)N(CCCN1CCN(c3ccccc3OC)CC1)C2	HTR1E	radioligand binding	–	concentration not given, with: [3H]5-HT	6.8%
COc1cc2ccc(=O)oc2c(OC(C)=O)c1OCC=C(C)C	Luciferin 4-monooxygenase	luciferase luminescence, inhibitor	cell-free	50 µM, counter-screen	39.5%
CN(C(=O)n1cnc(-c2ccc[n+]([O-])c2)c1)C1CCCCC1	PTAFR (Homo sapiens, UniProt P25105)	–	–	10 µM	0.21%
Cn1cc(-c2cnc3ccc(NC(=O)Nc4ccc(F)c(Br)c4)cc3n2)cn1	MAP3K2 (Homo sapiens, UniProt Q9Y2U5)	kinase binding, KiNativ profiling, item: Lys1 peptide	PANC-1 lysate	5 µM	3.7%
COc1ccc(F)cc1C(=O)NCc1ccc(-c2nn([C@@H](C)C(F)(F)F)c(N)c2C(N)=O)cc1	STE20-related kinase adapter protein beta (Homo sapiens, UniProt Q9C0K7)	target engagement, competitive chemoproteomics	human PBMCs	1 µM	19.9%
CSc1ncc(CN2CCC(Oc3ccc(C(=O)N4CCCC4)cc3)CC2)cn1	Luciferin 4-monooxygenase	luciferase luminescence, inhibitor	cell-free	50 µM, counter-screen	3.73%
CCN(O)N=Nc1ccc(S(=O)(=O)Nc2nccs2)cc1	α-glucosidase, rat intestine	enzyme activity	–	180 µg/mL, with: 4-nitrophenyl α-D-glucopyranoside	45 ± 4.16%
O=C(CN1CCO[C@@H](COc2cccnc2)C1)N1CCc2ccccc21	DRD1 (Homo sapiens, UniProt P21728)	radioligand binding	–	concentration not given, with: [3H]SCH23390	9.8%
O=S(=O)(Nc1nccs1)c1ccc(N=NN(O)c2ccccc2)cc1	α-glucosidase, rat intestine	enzyme activity	–	240 µg/mL, with: 4-nitrophenyl α-D-glucopyranoside	42.5 ± 0.01%
C[n+]1c2cc(N)ccc2cc2ccc(N)cc21.[Cl-]	Palmitoyl-protein thioesterase 1	Spectrum Collection screen	–	concentration not given, with: substrate 20 µM	70%
CC[C@@H]1[C@H](F)C(=O)N[C@@H]1COc1nccc2cc(C(N)=O)c(OC)cc12	CLK2 (Homo sapiens, UniProt P49760)	ATP-site probe binding, ActivX profiling	THP-1 cell lysate	0.04 mM, Lys2 site	32.4%
Cc1ccc(N(O)N=Nc2ccc(S(=O)(=O)Nc3cc(C)on3)cc2)cc1	α-glucosidase, rat intestine	enzyme activity	–	240 µg/mL, with: 4-nitrophenyl α-D-glucopyranoside	47.5 ± 0.09%
CN1CCN(c2cc(-c3ccncc3)c(-c3ccc4ccccc4c3)nn2)CC1	C3AR1 (Homo sapiens, UniProt Q16581)	antagonist, FLIPR	–	10 µM	1.2%
Cc1ccc(N(O)N=Nc2ccc(S(=O)(=O)Nc3onc(C)c3C)cc2)cc1	α-glucosidase, rat intestine	enzyme activity	–	180 µg/mL, with: 4-nitrophenyl α-D-glucopyranoside	30 ± 0.09%
O=C1c2ccccc2CCN1CCCCN1CCN(c2ccccn2)CC1	HTR1E	radioligand binding	–	concentration not given, with: [3H]5-HT	-6.5%
CN(O)N=Nc1ccc(S(=O)(=O)Nc2nccs2)cc1	α-glucosidase, rat intestine	enzyme activity	–	120 µg/mL, with: 4-nitrophenyl α-D-glucopyranoside	27.5 ± 0.59%
COc1ccc(Cl)cc1S(=O)(=O)Nc1cncc(C(N)=O)c1	Alkaline phosphatase, tissue-nonspecific isozyme (Mus musculus, UniProt P09242)	enzyme activity	mouse, plasma	oral, 10 mg/kg single dose, 8 h	> 75%
COc1cc(O)c(C(=O)c2ccccc2)cc1S(=O)(=O)O	Palmitoyl-protein thioesterase 1	Spectrum Collection screen	–	concentration not given, with: substrate 20 µM	69.7%
CC(C)S[C@@H]1O[C@H](CO)[C@H](O)[C@H](O)[C@H]1O	Adhesin FmlH, lectin domain (Escherichia coli, UniProt Q1RBS0)	binding to desialylated mucin, ELISA competition	UPEC UTI89	100 µM	23.7 ± 5.3%

For quick reference, copied from above:
SMILES	target	assay	test system	setting	inhibition
O=C1c2ccccc2CCN1CCCCN1CCN(c2ccccn2)CC1	HTR1E	radioligand binding	–	concentration not given, with: [3H]5-HT	-6.5%
CN(O)N=Nc1ccc(S(=O)(=O)Nc2nccs2)cc1	α-glucosidase, rat intestine	enzyme activity	–	120 µg/mL, with: 4-nitrophenyl α-D-glucopyranoside	27.5 ± 0.59%
